{"data": "Experimental data pooled from the literature", "note": "Parts stem from different laboratories: compare values within a part only.", "UniProt Q92772, sequence (whole entry, looked up)": "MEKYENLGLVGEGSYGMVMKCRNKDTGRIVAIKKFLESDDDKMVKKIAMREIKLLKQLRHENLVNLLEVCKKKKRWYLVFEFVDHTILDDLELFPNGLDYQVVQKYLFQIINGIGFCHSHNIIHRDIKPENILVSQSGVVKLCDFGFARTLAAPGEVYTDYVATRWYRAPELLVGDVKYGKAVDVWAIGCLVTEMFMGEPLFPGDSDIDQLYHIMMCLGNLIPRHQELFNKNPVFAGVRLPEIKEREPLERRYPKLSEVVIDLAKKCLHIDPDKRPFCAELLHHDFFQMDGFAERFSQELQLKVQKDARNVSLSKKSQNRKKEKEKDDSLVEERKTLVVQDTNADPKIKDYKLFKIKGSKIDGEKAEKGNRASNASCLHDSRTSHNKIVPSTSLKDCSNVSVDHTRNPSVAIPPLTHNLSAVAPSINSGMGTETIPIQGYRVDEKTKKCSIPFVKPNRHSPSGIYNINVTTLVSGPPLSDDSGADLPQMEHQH", "UniProt P42685, sequence (whole entry, looked up)": "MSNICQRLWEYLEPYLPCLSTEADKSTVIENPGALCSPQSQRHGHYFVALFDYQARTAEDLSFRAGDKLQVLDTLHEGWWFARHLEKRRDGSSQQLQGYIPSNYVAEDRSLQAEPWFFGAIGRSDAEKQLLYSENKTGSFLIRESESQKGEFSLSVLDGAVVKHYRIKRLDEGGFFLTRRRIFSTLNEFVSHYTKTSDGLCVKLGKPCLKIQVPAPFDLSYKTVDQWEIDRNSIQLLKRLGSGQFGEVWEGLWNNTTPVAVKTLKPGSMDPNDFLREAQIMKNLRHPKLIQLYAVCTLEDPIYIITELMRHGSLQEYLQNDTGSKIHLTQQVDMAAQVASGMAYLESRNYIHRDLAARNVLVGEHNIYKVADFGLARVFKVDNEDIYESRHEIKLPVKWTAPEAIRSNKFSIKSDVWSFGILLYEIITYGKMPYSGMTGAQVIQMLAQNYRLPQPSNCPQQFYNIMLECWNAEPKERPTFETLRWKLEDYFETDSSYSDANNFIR", "UniProt P33981, sequence (whole entry, looked up)": "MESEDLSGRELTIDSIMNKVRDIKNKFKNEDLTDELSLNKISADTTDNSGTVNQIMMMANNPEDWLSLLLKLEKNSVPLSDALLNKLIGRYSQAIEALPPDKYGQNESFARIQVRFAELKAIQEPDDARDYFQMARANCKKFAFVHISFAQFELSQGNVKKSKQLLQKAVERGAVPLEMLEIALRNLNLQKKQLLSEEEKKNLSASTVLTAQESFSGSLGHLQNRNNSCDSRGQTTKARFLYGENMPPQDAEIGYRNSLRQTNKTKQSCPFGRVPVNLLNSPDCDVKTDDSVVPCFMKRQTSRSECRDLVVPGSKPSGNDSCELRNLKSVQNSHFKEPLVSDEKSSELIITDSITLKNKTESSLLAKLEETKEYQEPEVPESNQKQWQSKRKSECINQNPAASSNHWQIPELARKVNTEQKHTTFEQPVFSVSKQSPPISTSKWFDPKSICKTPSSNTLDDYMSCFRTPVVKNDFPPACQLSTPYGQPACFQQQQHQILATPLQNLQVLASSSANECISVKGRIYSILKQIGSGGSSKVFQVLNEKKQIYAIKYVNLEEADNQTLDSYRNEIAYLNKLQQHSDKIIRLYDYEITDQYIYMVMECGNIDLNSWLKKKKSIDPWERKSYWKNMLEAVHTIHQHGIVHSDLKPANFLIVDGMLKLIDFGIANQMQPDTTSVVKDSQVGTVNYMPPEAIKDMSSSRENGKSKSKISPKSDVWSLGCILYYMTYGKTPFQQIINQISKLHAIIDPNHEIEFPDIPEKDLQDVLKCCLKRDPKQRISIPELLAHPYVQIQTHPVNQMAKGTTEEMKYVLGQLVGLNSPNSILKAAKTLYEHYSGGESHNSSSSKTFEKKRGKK", "UniProt Q13882, sequence (whole entry, looked up)": "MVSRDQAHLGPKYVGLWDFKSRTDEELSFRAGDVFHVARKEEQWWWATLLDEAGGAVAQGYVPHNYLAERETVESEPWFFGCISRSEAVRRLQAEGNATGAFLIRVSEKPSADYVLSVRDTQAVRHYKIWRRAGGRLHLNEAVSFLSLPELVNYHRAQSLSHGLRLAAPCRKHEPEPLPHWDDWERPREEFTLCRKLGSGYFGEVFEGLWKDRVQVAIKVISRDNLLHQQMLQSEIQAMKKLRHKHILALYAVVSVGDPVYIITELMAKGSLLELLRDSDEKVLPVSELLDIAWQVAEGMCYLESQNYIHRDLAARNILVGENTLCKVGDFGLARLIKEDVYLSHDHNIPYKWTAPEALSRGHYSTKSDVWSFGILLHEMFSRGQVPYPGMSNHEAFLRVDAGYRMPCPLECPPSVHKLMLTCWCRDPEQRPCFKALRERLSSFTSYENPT", "UniProt O96017, sequence (whole entry, looked up)": "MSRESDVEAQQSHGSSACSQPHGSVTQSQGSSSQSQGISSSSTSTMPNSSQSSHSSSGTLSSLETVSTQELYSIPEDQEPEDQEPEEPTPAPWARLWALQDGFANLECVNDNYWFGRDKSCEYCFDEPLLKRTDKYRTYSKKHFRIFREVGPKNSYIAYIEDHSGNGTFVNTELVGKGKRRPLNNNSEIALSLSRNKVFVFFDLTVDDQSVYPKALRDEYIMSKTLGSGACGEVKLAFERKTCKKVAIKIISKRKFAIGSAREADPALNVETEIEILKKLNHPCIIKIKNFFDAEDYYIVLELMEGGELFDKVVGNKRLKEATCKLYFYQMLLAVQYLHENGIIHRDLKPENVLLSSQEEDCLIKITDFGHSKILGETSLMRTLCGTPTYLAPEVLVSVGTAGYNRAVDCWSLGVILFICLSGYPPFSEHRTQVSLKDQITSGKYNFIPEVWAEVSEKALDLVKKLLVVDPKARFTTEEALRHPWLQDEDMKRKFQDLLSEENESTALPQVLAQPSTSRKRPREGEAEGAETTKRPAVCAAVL", "UniProt Q9BXA7, sequence (whole entry, looked up)": "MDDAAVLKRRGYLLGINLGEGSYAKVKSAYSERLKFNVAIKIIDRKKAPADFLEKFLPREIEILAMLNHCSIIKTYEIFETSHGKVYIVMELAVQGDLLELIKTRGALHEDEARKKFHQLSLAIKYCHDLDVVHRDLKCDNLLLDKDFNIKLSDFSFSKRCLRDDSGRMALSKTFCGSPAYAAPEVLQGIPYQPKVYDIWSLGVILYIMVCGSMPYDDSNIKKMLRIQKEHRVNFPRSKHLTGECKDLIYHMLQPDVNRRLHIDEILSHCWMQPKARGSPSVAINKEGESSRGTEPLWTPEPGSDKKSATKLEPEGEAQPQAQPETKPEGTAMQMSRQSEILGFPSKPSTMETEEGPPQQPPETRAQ", "UniProt Q9UK32, sequence (whole entry, looked up)": "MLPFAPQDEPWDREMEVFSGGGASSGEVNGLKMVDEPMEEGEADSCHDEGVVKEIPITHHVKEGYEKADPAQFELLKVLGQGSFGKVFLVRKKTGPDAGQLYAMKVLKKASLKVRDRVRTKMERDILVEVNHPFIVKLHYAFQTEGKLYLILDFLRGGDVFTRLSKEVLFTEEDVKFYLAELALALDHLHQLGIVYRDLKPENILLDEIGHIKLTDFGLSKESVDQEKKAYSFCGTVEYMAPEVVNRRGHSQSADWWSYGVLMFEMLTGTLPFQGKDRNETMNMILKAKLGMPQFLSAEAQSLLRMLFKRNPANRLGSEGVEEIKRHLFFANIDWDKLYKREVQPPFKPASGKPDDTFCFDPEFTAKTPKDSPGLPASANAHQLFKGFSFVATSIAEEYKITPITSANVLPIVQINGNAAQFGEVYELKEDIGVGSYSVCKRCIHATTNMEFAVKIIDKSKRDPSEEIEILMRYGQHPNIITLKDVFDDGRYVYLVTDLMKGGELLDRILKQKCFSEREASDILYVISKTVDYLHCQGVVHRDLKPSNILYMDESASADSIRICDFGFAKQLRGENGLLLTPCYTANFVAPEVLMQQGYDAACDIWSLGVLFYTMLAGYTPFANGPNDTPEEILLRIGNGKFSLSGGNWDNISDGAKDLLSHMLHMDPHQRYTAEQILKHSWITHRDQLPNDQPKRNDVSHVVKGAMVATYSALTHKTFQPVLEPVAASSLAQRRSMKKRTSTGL"}
{"data": "Set 1", "SMILES": "CN(C)c1ncnc(-c2ccc3nc(Nc4cc(CN5CCN(C(=O)CC(F)(F)F)CC5)ccn4)[nH]c3c2)c1Cl", "concentration": "1 µM"}
{"target": "KIT (Homo sapiens, UniProt P10721, V559D)", "assay": "cell-free assay, competition with immobilised ligand", "remaining binding [%]": 75}
{"target": "TBK1 (Homo sapiens, UniProt Q9UHD2)", "assay": "binder, KINOMEscan competition binding", "how to read": "relative to: DMSO", "remaining binding [%]": 24}
{"target": "NUAK1 (Homo sapiens, UniProt O60285)", "assay": "cell-free assay, competition with immobilised ligand", "remaining binding [%]": 100}
{"target": "FGR (Homo sapiens, UniProt P09769)", "assay": "cell-free assay, competition with immobilised ligand", "remaining binding [%]": 98}
{"target": "PIK3C2G (Homo sapiens, UniProt O75747)", "assay": "cell-free assay, competition with immobilised ligand", "remaining binding [%]": 83}
{"target": "Tyrosine-protein kinase ABL1, phosphorylated (ABL1, Homo sapiens, UniProt P00519, H396P)", "assay": "cell-free assay, competition with immobilised ligand", "remaining binding [%]": 44}
{"target": "CDKL2 (Homo sapiens, UniProt Q92772)", "assay": "cell-free assay, competition with immobilised ligand", "remaining binding [%]": 100}
{"target": "CHEK2 (Homo sapiens, UniProt O96017)", "assay": "cell-free assay, competition with immobilised ligand", "remaining binding [%]": 100}
{"target": "SLK (Homo sapiens, UniProt Q9H2G2)", "assay": "cell-free assay, competition with immobilised ligand", "remaining binding [%]": 100}
{"target": "Ribosomal protein S6 kinase alpha-6, N-terminal kinase domain (RPS6KA6, Homo sapiens, UniProt Q9UK32)", "assay": "cell-free assay, competition with immobilised ligand", "remaining binding [%]": 84}
{"target": "FRK (Homo sapiens, UniProt P42685)", "assay": "cell-free assay, competition with immobilised ligand", "remaining binding [%]": 85}
{"target": "eIF-2-alpha kinase GCN2, C-terminal kinase domain (EIF2AK4, Homo sapiens, UniProt Q9P2K8, S808G)", "assay": "cell-free assay, competition with immobilised ligand", "remaining binding [%]": 100}
{"target": "TRPM6 (Homo sapiens, UniProt Q9BX84)", "assay": "cell-free assay, competition with immobilised ligand", "remaining binding [%]": 100}
{"target": "PRKAA1 (Homo sapiens, UniProt Q13131)", "assay": "cell-free assay, competition with immobilised ligand", "remaining binding [%]": 100}
{"target": "TESK1 (Homo sapiens, UniProt Q15569)", "assay": "cell-free assay, competition with immobilised ligand", "remaining binding [%]": 78}
{"target": "MARK1 (Homo sapiens, UniProt Q9P0L2)", "assay": "cell-free assay, competition with immobilised ligand", "remaining binding [%]": 100}
{"target": "Tyrosine-protein kinase ABL1, non-phosphorylated (ABL1, Homo sapiens, UniProt P00519, F317I)", "assay": "binding, competition with immobilised ligand", "remaining binding [%]": 28}
{"data": "Set 2", "Compound": "CC[n+]1c(/C=C/N(C)c2ccccc2)n(-c2ccccc2)c2ccc(-c3nc4ccccc4s3)cc21", "observed": "enzyme activity", "mode": "inhibitor", "concentration": "0.5 µM", "relative to": "control"}
{"target": "TSSK1B (Homo sapiens, UniProt Q9BXA7)", "remaining activity [%]": 102}
{"target": "TTK (Homo sapiens, UniProt P33981)", "remaining activity [%]": 96.6}
{"target": "PIM3 (Homo sapiens, UniProt Q86V86)", "remaining activity [%]": 98.8}
{"target": "BRAF (Homo sapiens, UniProt P15056)", "remaining activity [%]": 100}
{"target": "PTK6 (Homo sapiens, UniProt Q13882)", "remaining activity [%]": 90.2}
{"target": "Aurora kinase B (AURKB, Homo sapiens, UniProt Q96GD4)", "remaining activity [%]": 93.8}
{"target": "PDGFRA (Homo sapiens, UniProt P16234)", "remaining activity [%]": 95.2}
{"target": "STK4 (Homo sapiens, UniProt Q13043)", "remaining activity [%]": 98.3}
{"data": "Set 3", "Structure (SMILES)": "COc1ccc(-c2c(Nc3ccccn3)[nH]c3c(C4=CCCCC4)c(-c4ccccc4)nn3c2=O)cc1", "sample": "plasma", "route": "oral"}
{"system": "human patients", "conditions": "400 mg once daily, 0 h, cycle 1", "plasma concentration, median [ng/mL]": 2090}
{"system": "human patients", "conditions": "150 mg once daily, 2 h, cycle 1", "plasma concentration, median [ng/mL]": 5010}
{"assay": "LC-MS/MS", "system": "human", "conditions": "200 mg twice daily, 3 h", "plasma concentration, median [ng/mL]": 11400}
{"system": "human patients", "conditions": "150 mg once daily, 0.5 h, cycle 1", "plasma concentration, median [ng/mL]": 3230}
{"assay": "LC-MS/MS", "system": "human", "conditions": "50 mg once daily, 0 h, cycle 1", "plasma concentration, median [ng/mL]": 1170}
{"system": "human patients", "conditions": "150 mg once daily, 3 h, cycle 1", "plasma concentration, median [ng/mL]": 4940}
{"system": "human patients", "conditions": "150 mg once daily, 4 h, cycle 1", "plasma concentration, median [ng/mL]": 4470}
{"data": "Set 4", "target": "Beta-1 adrenergic receptor (ADRB1, Homo sapiens, UniProt P08588)", "mode": "antagonist", "UniProt P08588, sequence (whole entry, looked up)": "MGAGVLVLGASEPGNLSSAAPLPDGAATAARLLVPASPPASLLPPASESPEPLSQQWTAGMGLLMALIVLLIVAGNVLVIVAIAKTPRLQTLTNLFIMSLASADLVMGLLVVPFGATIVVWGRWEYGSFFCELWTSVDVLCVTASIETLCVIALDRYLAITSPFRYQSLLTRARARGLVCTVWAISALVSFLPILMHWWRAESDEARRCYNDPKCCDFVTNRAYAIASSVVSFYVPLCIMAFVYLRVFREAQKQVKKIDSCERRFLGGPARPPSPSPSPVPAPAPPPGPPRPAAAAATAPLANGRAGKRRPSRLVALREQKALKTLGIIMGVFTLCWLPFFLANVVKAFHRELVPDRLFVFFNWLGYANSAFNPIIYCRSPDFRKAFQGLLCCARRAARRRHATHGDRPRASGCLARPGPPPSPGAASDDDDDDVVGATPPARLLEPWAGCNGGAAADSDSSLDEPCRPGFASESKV"}
{"Structure (SMILES)": "CC(=O)Oc1ccc2c(C)cc(=O)oc2c1", "IC50 [µM]": "≥ 100"}
{"Structure (SMILES)": "COCCNC[C@@H]1C=C(C)[C@H](Cc2nnc(-c3ccc(N(C)C)cc3)o2)C[C@H]1C(C)C", "IC50 [µM]": "≥ 100"}
{"Structure (SMILES)": "O=c1ncn(CCC(F)(F)F)c2ccc(-c3ccccc3)nc12", "IC50 [µM]": "≥ 100"}
{"Structure (SMILES)": "Clc1cccc(N2CCN(Cc3cnn(-c4ccccc4)c3)CC2)c1", "IC50 [µM]": "≥ 100"}
{"Structure (SMILES)": "N#Cc1ccccc1CN1CCNc2nc(CNCc3ccccc3)n(Cc3ccccc3)c2C1=O", "IC50 [µM]": "≥ 100"}
{"Structure (SMILES)": "Cc1cc(=O)oc2cc(NC(=O)CCCCCCC(=O)NO)ccc12", "IC50 [µM]": "≥ 100"}
{"note": "Repeated from above (set 1):"}
{"target": "Ribosomal protein S6 kinase alpha-6, N-terminal kinase domain (RPS6KA6, Homo sapiens, UniProt Q9UK32)", "assay": "cell-free assay, competition with immobilised ligand", "remaining binding [%]": 84}
{"target": "FRK (Homo sapiens, UniProt P42685)", "assay": "cell-free assay, competition with immobilised ligand", "remaining binding [%]": 85}
{"target": "eIF-2-alpha kinase GCN2, C-terminal kinase domain (EIF2AK4, Homo sapiens, UniProt Q9P2K8, S808G)", "assay": "cell-free assay, competition with immobilised ligand", "remaining binding [%]": 100}
{"target": "TRPM6 (Homo sapiens, UniProt Q9BX84)", "assay": "cell-free assay, competition with immobilised ligand", "remaining binding [%]": 100}
{"target": "PRKAA1 (Homo sapiens, UniProt Q13131)", "assay": "cell-free assay, competition with immobilised ligand", "remaining binding [%]": 100}
